Measured values collected from several papers.
Numbered parts are unrelated; each lists some results of a single study.

Series 1
Target: Interferon regulatory factor 7, full length, phosphomimetic (IRF7, Homo sapiens, UniProt Q92985, residues 1-503, S471D/S472D/S475D/S476D/S477D/S483D/S484D/S487D)
Sequence of UniProt Q92985 (whole entry, unmodified, looked up): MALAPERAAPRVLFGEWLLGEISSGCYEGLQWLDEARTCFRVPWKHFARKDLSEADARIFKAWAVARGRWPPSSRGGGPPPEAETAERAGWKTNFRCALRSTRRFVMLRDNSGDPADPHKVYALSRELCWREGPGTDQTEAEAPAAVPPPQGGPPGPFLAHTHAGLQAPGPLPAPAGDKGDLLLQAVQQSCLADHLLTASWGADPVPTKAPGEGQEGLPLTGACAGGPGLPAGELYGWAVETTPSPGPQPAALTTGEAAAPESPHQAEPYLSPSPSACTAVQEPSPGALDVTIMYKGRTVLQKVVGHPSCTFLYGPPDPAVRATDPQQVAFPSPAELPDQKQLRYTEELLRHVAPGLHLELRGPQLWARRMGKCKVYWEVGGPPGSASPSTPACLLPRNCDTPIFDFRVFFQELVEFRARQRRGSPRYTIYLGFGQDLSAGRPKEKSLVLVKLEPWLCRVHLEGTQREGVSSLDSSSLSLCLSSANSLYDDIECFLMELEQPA
Technique: protein-binding microarray
Molecule type: double-stranded DNA, one strand shown
Sample: in vitro
Tested at: 2200 nM top
Notes: 60-bp whole probe
Added: salmon DNA 0.4 mg/ml
Baseline: random background probes
Direction: higher = stronger binding
Shared flanks, not repeated: GCCTAGCAC … GTCTTGATTCGCTTGACGCTGCTG
| Strand | fitted relative affinity [z-score] |
| --- | --- |
| TTAGGACTGGGTTACGGTTAGTGCTAG | -0.0463 |
| TCTCTTCTGCTTCCTCAGGACGTGCTA | 1.96 |
| GACGGCCTGGGGTATCGGGACGTGCTA | -1.29 |
| GACGGACTGCTACGGCTGACGTGCTAG | -0.286 |
| TTAGGACTGGGTAACGGTTAGTGCTAG | -0.721 |
| TTAGATTTCAGTTCTGATTAGTGCTAG | 1.33 |
| GGCGCTTTTTTTCCGAGTGAGTGCTAG | 0.444 |
| TCACCTTTCAGTTTTCCACTGTGCTAG | 4.18 |
| GGCGATCTCAGTTTCGAGACGTGCTAG | 3.1 |
| AACCTTATTAAGATTGTGCAAGTGCTA | -0.337 |
| GACGGTTGCGGGTTTCGGGACGTGCTA | 2.09 |

Series 2
Target: Histone acetyltransferase KAT6A, both winged helices, GST fusion (KAT6A, Homo sapiens, UniProt Q92794, residues 1-181)
Technique: protein binding microarray
Molecule type: double-stranded DNA, one strand shown
Sample: in vitro
Tested at: not given
Notes: 8-mer, flanks averaged, mean of 2 arrays, mostly near background
Baseline: not given
Direction: higher = stronger binding
Target sequence (chain): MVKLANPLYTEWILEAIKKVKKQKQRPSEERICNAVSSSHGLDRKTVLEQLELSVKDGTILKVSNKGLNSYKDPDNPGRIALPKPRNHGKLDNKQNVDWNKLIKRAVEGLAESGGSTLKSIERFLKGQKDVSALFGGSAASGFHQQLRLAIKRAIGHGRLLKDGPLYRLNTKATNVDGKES
| Strand | E-score |
| --- | --- |
| ATCACTAG | -0.115 |
| CATTGAGG | -0.166 |
| GACTGTAA | -0.00601 |
| CCATGTAG | -0.0431 |
| GCTGTTCA | -0.0872 |
| AGTTGGTA | -0.262 |
| AACTCGCA | -0.127 |

Series 3
Target: RING finger protein unkempt homolog, zinc fingers 1-6, GST-SBP tag (UNK, Homo sapiens, UniProt Q9C0B0, residues 30-357)
Technique: RNA Bind-n-Seq
Molecule type: RNA
Sample: in vitro
Tested at: not given
Notes: RNA with constant flanks, human-mouse chimeric sites, ends assumed
Baseline: input RNA pool
Direction: higher = stronger binding
Target sequence (chain): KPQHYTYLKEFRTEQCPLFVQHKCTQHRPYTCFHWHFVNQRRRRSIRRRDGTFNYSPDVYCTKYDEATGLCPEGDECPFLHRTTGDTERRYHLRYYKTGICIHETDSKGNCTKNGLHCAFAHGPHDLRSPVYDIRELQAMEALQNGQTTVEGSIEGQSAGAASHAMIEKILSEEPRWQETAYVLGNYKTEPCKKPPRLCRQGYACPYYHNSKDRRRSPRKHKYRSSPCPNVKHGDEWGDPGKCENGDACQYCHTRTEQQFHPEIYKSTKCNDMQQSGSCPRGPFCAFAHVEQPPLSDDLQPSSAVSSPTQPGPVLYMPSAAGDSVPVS
| Strand | bound/input enrichment [ratio] |
| --- | --- |
| GGGAGUUCUACAGUCCGACGAUCAGGAGGAGGUUAAAGGGUGAGAGUGGGGUGGAAGACUGUGUCAUGGCUCUGGAGACAUUGUUUAGUGUCCUGCUUUCUCUGUGCAGACUGAUGGCCCCUUACACGCCCUUUCUGACUGAGCAACAGAGGAUUGAGCAUCA | 0.0853 |
| GGGAGUUCUACAGUCCGACGAUCGUGCCCUUCUCGCUGCUCCUGCGGGGCAGCUGGGAACCAUUCCGGGACUGGUACCCUGCACACAGCCGCCUCUUCGAUCAAGCUUUCGGGGUGCCCCGGUUGCCCGAUGAGUGGUCGCAGCAACAGAGGAUUGAGCAUCA | 0.0597 |
| GGGAGUUCUACAGUCCGACGAUCCACGUGUCUGCAGUGCUUGAUGUGGACUACUCUCCCACUGGGAAGGAAUUUGUGUCUGCCAGCUUUGAUAAGUCUAUUAGAAUCUUUCCUGUAGACAAGAGCCGAAGCAGGGAAGUGUAUCAACAGAGGAUUGAGCAUCA | 0.576 |
| GGGAGUUCUACAGUCCGACGAUCCUGUGACUGAUGGCAGCUACCUGAGUGGCAGCUGAAGUUGACUCCCUCUCCUUGCCUGAACCCCCCCCCACUGCCCCCCCAUCCCCCAGUGUCGGCUGAGAUGUUGCCUCUGCACGGUUCCAACAGAGGAUUGAGCAUCA | 1.32 |

Other studies, line by line
| Substance | target | test | test system | setting | how to read | endpoint | value |
| --- | --- | --- | --- | --- | --- | --- | --- |
| PhoQ, residues 284 288 289 292 302 303 QWQEDG | PhoP, residues 12 14 15 18 19 LHHSG (Escherichia coli, UniProt P23836) | Sort-seq, refers to: YFP reporter | E. coli | PhoQ-PhoP variant library, added: 10 µM Mg2+ | baseline: high Mg2+ state, higher = stronger signaling | fold induction | 20.6 |

Repeated from above (series 2):
| Strand | E-score |
| --- | --- |
| GACTGTAA | -0.00601 |
| CCATGTAG | -0.0431 |
